Results gathered from unrelated publications.
Several values in a cell are separate wells, animals, samples, runs or records. ± marks the error that the study gave.
Baiap2: BAR/IMD domain-containing adapter protein 2 (Baiap2, Rattus norvegicus, UniProt Q6GMN2)
UniProt P27361, sequence (whole entry, looked up): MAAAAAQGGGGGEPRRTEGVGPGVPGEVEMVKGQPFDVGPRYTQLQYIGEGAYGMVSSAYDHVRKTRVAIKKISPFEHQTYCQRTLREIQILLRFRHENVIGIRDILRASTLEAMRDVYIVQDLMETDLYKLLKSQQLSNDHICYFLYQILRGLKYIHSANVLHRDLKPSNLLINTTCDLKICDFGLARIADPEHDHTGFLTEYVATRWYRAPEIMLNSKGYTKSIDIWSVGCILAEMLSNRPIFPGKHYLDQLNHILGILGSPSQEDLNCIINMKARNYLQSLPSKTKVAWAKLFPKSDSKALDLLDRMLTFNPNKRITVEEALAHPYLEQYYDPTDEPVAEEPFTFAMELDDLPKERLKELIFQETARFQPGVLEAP
UniProt Q007T0, sequence (whole entry, looked up): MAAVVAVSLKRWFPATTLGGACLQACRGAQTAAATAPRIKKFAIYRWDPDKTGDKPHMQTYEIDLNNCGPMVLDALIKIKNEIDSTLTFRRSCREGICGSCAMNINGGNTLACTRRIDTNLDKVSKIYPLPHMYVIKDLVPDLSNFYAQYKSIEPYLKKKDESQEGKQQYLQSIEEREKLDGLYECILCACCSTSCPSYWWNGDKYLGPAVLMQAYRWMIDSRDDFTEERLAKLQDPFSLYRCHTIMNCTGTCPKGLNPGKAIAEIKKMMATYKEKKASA
UniProt A5GZW8, sequence (whole entry, looked up): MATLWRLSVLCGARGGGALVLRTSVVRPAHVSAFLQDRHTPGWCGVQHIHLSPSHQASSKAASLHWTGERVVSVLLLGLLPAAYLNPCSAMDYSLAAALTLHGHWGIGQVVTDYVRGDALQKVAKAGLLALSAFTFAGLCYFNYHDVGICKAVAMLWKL
UniProt D0VWV4, sequence (whole entry, looked up): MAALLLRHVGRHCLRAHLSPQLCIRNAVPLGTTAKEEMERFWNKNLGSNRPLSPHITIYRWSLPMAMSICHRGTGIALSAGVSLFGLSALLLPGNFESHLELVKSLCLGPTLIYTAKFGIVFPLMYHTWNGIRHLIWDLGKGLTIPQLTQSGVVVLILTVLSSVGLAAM
UniProt P06276, sequence (whole entry, looked up): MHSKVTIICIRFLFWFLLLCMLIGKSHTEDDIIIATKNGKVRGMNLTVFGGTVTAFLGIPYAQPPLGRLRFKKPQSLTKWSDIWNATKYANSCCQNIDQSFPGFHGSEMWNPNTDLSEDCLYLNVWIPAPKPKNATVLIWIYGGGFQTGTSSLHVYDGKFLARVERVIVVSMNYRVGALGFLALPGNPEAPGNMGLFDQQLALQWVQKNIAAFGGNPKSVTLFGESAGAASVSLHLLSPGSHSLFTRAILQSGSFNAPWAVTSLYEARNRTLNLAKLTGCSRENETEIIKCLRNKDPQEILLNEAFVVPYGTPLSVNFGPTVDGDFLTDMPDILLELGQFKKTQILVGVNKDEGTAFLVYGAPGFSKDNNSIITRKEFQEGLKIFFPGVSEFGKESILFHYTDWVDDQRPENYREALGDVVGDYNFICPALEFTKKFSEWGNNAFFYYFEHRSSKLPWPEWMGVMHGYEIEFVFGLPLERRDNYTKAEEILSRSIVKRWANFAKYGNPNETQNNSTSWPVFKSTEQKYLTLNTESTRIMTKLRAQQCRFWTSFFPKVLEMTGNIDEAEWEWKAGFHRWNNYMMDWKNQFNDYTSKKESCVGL
UniProt Q6GMN2, sequence (whole entry, looked up): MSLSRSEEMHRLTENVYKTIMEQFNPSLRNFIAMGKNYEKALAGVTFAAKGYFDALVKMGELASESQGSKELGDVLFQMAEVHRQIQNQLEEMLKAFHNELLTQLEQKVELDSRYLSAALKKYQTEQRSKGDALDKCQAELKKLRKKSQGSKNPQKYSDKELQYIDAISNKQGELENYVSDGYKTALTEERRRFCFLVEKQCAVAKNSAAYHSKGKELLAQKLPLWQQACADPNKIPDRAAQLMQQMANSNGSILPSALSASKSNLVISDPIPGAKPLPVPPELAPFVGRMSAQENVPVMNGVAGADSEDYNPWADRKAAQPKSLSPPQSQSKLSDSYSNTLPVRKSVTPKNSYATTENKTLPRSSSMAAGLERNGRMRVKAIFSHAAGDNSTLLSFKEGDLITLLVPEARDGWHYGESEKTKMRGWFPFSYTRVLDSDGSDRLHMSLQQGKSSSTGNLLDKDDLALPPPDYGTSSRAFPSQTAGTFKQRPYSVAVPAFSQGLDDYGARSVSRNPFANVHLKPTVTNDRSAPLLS
UniProt P81908, sequence (whole entry, looked up): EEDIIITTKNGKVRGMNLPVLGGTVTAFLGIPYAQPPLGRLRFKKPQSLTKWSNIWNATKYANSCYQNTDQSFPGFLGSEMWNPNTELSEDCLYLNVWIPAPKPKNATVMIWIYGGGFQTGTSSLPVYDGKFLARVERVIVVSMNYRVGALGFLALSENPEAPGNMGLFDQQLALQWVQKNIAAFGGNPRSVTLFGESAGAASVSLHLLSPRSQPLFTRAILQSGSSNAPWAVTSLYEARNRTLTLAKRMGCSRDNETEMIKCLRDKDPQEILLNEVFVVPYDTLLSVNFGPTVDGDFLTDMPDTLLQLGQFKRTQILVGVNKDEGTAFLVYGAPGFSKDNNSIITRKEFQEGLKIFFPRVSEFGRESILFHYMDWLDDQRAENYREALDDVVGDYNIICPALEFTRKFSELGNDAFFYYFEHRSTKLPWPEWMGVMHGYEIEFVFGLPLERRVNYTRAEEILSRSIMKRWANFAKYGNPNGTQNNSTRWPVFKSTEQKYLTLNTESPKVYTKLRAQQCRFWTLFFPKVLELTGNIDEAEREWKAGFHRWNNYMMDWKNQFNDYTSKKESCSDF
UniProt Q62351, sequence (whole entry, looked up): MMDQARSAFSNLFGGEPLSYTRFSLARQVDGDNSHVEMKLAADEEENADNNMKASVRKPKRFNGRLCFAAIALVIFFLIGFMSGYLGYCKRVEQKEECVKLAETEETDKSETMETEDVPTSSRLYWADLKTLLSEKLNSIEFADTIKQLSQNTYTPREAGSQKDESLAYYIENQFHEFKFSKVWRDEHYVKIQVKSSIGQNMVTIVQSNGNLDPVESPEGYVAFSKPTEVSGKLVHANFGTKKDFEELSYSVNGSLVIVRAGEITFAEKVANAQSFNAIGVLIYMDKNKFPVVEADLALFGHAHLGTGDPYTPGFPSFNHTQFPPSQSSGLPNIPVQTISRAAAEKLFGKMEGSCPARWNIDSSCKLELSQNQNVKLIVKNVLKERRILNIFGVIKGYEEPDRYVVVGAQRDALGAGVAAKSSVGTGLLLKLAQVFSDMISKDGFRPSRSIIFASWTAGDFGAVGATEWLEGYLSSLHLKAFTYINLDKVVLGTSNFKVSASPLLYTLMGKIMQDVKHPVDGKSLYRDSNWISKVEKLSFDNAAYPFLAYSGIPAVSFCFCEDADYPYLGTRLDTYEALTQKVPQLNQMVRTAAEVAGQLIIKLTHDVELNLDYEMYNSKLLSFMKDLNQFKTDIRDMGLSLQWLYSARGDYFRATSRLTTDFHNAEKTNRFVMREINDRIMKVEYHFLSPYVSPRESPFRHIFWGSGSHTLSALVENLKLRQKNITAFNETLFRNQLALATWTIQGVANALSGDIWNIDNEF
UniProt O43570, sequence (whole entry, looked up): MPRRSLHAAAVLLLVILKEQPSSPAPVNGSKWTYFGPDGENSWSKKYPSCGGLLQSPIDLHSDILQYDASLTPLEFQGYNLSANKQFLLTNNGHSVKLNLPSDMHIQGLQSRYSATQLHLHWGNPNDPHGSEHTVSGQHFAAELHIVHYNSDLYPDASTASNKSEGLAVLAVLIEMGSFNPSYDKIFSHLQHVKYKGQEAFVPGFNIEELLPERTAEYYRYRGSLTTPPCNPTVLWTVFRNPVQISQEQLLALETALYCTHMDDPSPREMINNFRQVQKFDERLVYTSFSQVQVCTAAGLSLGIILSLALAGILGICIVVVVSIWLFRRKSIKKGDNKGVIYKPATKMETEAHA
UniProt Q704Y3, sequence (whole entry, unmodified, looked up): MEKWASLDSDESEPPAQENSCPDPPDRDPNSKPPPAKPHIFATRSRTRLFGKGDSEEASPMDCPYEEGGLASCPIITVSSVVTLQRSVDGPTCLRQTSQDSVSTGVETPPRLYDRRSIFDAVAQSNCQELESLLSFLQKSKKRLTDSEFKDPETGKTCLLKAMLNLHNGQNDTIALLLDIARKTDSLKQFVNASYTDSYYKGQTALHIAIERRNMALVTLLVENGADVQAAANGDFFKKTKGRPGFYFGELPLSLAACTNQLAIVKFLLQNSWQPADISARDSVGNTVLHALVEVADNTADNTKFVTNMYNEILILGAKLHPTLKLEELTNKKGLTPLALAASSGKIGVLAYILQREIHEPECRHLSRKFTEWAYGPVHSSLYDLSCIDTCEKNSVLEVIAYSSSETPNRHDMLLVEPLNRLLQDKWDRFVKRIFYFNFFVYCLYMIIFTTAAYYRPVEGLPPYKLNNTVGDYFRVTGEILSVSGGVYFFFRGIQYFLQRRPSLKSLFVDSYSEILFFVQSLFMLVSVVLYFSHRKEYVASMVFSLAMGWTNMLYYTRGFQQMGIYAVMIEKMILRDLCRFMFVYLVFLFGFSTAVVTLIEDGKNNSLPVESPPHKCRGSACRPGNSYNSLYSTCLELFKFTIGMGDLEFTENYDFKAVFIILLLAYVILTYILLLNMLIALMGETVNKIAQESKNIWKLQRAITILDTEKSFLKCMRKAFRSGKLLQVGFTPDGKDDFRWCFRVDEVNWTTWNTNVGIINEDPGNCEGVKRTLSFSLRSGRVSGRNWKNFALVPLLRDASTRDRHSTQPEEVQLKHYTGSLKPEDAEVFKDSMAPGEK
UniProt Q00535, sequence (whole entry, looked up): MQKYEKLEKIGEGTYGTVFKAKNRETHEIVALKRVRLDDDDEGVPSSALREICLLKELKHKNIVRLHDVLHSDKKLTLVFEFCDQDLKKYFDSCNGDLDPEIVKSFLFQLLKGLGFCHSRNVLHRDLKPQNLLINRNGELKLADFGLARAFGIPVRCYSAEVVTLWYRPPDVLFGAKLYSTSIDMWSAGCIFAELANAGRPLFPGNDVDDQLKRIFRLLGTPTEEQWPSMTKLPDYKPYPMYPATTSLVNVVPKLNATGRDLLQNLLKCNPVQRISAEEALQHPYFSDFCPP

C[C@@H](NCCCc1cccc(C(F)(F)F)c1)c1cccc2ccccc12  efficacy (Cholinesterase (BCHE, Homo sapiens, UniProt P06276); concentration not given, Triton): -95.9 ± 21%
COc1ccc(N2C(=O)N(c3c(C)cccc3Cl)Cc3cnc(Nc4ccc(C5CCN(C)CC5)cc4OC)nc32)nc1  inhibition (BMX (Homo sapiens, UniProt P51813); kinase activity; 0.5 µM): 94%
OC[C@@H](O)c1ccccc1  Km (uncharacterized protein (Streptomyces globisporus, UniProt Q8GMG2); ester bond formation, substrate, HPLC; acceptor substrate): 3500 µM
CN1CCN(c2cc(-c3ccncc3)c(-c3ccc4ccccc4c3)nn2)CC1  activation (HCRTR2 (Homo sapiens, UniProt O43614); agonist, FLIPR calcium; 12.5 µM): -3%
O=C(Nc1cnccc1Cl)N1CCN(Cc2ccc3c(c2)OC(F)(F)O3)CC1  inhibition of binding (HRH1 (Homo sapiens, UniProt P35367); radioligand binding; 10 µM, added: [3H]pyrilamine): 4%
[2H]c1c([2H])c([C@]2([2H])CCCN2C(=O)C(C)(C)Oc2ccc3cn[nH]c3c2)c([2H])c([2H])c1C([2H])([2H])[2H]  remaining binding (CDK5 (Homo sapiens, UniProt Q00535); KINOMEscan; 1 µM; reference: DMSO control): 98%
C=C(CN(C(=O)c1c(C(F)F)nn(C)c1F)C1CC1)c1ccc(Cl)cc1Cl  reaction velocity (SDHD/SDHC/SDHB (Sus scrofa, UniProt A5GZW8+D0VWV4+Q007T0); enzyme activity, inhibitor, DCIP reduction; pig; 0.1 µM, added: DCIP 190 µM): 0.0297 µM/s and 0.0293 µM/s
COC(=O)[C@@]1(O)C[C@H]2O[C@]1(C)n1c3ccccc3c3c4c(c5c6ccccc6n2c5c31)C(=O)NC4  kinase activity (MAPK3 (Homo sapiens, UniProt P27361); ADP-Glo; 100 nM, added: MBP substrate): 65.1% and 56.5% and 40.5%
C[C@H]1CN(c2n[nH]c3nc(N[C@H]4CC[C@H](NS(=O)(=O)CCC(F)(F)F)CC4)ncc23)CCO1  relative abundance (PSMD3 (Homo sapiens, UniProt O43242); inhibitor, Kinobeads competition profiling; 20 µM; reference: vehicle): 1.25
COCC(=O)O[C@]1(CCN(C)CCCc2nc3ccccc3[nH]2)CCc2cc(F)ccc2[C@@H]1C(C)C  efficacy (Cholinesterase (BCHE, Homo sapiens, UniProt P06276); concentration not given, Triton): -91.2 ± 13%
N#C[Se]CCCCOc1ccc2c(-c3ccccc3)cc(=O)oc2c1  selectivity ratio (CA12 (Homo sapiens, UniProt O43570); stopped-flow CO2 hydration; reference: Ki CA II over Ki CA XII): > 338
COC(=O)[C@H]1[C@H]2C[C@@H]3c4[nH]c5cc(OC)ccc5c4CCN3C[C@H]2C[C@@H](OC(=O)c2cc(OC)c(OC)c(OC)c2)[C@@H]1OC  IC50 (Plasmodium falciparum; Dd2): 2.51 µM
Nc1ncc(-c2nc(N3CCOCC3)nc(N3CCOCC3)n2)c(C(F)F)n1  remaining binding (Tyrosine-protein kinase ABL1, phosphorylated (ABL1, Homo sapiens, UniProt P00519, F317L); KINOMEscan; 10 µM): 86%
Nc1nc2c(ncn2[C@@H]2O[C@H](COP(=O)(O)OP(=O)(O)OP(=O)(O)O)[C@@H](O)[C@H]2O)c(=O)[nH]1  binding entropy ΔS (GTP 3',8-cyclase (moaA, Staphylococcus aureus, UniProt P69848); isothermal titration calorimetry; concentration not given): -41.7 cal/mol/K
Oc1ccc(C(c2ccc(O)cc2)(C(F)(F)F)C(F)(F)F)cc1  activity (ATP2A1 (Oryctolagus cuniculus, UniProt P04191); inhibitor; concentration not given): inactive
CCN(C)C(=O)Oc1ccc(CCC(=O)N2CCc3ccccc3C2)cc1OC  selectivity ratio (Cholinesterase (BCHE, Equus caballus, UniProt P81908); Ellman; equine serum BuChE; reference: AChE IC50 over BuChE IC50): 1.5
O=C1[O][Pt]2([NH][C@@H]3CCCC[C@H]3[NH]2)[O]C1=O  Hill coefficient (Chrna7 (Rattus norvegicus, UniProt Q05941); inhibitor; added: acetylcholine 30 µM): 2.4 ± 0.2
O=C(CN1CCN(Cc2ccc3c(c2)OCO3)CC1)N1c2ccccc2Sc2ccccc21  efficacy (Cholinesterase (BCHE, Homo sapiens, UniProt P06276); concentration not given, Triton): -91.9 ± 4.05%
O=c1cc(CSc2ccc(N=Cc3ccc(F)cc3)cc2)occ1O  bimolecular quenching constant (MAL12 (Saccharomyces cerevisiae S288c, UniProt P53341); fluorescence quenching; 289.15 K): 5.44e+12 M⁻¹ s⁻¹
O=c1c2ccccc2oc2cc(OCCCCc3ccccc3)ccc12  reaction velocity (ache (Electrophorus electricus, UniProt O42275); enzyme activity; 2.91 µM, added: substrate 0.43 mM; higher = faster reaction): 0.0005 a.u.
COC1=C(OC)C(=O)C(CC=C(C)C)=C(C)C1=O  P+QA− recombination rate (Reaction center protein M chain, QA site (pufM, Cereibacter sphaeroides, UniProt P0C0Y9); charge recombination; Rhodobacter sphaeroides, LDAO detergent solution; pH 7.8, 298 K, quinone reconstituted in QA site): 10 s⁻¹
CN(C(=O)n1cnc(-c2ccc[n+]([O-])c2)c1)C1CCCCC1  probe labelling (Baiap2; competitive ABPP with azido-FP probe, item: BAIAP2; rat brain membrane fraction; 10 µM, unit not given; reference: DMSO): -1.9
Oc1ccc(/C=C/c2cc(O)cc(O)c2)cc1  ∆H (O-methyltransferase (Sorghum bicolor, UniProt A0A1B6PFV1, W279A); isothermal titration calorimetry; apo protein): -10.2 ± 0.406 kcal/mol
COc1cc(N)c(Cl)cc1C(=O)NC1CN2CCC1CC2 (stereo not drawn)  log2 fold change (Trace amine-associated receptor 9 (TAAR9, Homo sapiens, UniProt Q96RI9); β-arrestin recruitment, TANGO luminescence, item: TAAR9; concentration not given; reference: basal luminescence): 0.079
NCCc1c[nH]c2ccc(O)cc12  Km (AANAT1 cattle; substrate, DTNB colorimetric; added: acetyl-CoA): 120 ± 100 µM
O=C(Nc1cccnn1)N1CCC(=Cc2cccc(Oc3ccc(C(F)(F)F)cn3)c2)CC1  probe labelling (Baiap2; competitive ABPP with azido-FP probe, item: BAIAP2; rat brain membrane fraction; 0.01 µM, unit not given; reference: DMSO): -2
CC(C)(CO)Cc1cc(C(C)(C)C)c(O)c(C(C)(C)C)c1  IC50 (Plasmodium falciparum; HB3): 6.31 µM
CCOP(=S)(OCC)O/N=C(\C#N)c1ccccc1  efficacy (Cholinesterase (BCHE, Homo sapiens, UniProt P06276); concentration not given, Triton): -98.3 ± 4.77%
COc1cc(/C=C/C(=O)NC2CCN(Cc3ccccc3)CC2)ccc1OC(=O)N(C)C  selectivity ratio (Cholinesterase (BCHE, Equus caballus, UniProt P81908); Ellman; equine serum BuChE; reference: AChE IC50 over BuChE IC50): 0.5
CC(=O)N[C@@H](C)C(=O)N1CCC[C@H]1C(=O)N[C@@H](CC(C)C)C(=O)N[C@H](C(=O)N[C@@H](CCCNC(=N)N)C(=O)NCC(=O)N[C@@H](CO)C(=O)N[C@@H](CS)C(=O)N[C@@H](CCCNC(=N)N)C(=O)N[C@@H](CCCCN)C(=O)N[C@@H](CCCNC(=N)N)C(=O)N[C@@H](CC(N)=O)C(=O)N[C@@H](CCCNC(=N)N)C(=O)N[C@@H](CO)C(=O)N1CCC[C@H]1C(=O)N[C@@H](CCC(=O)O)C(=O)N[C@@H](CCCNC(=N)N)C(N)=O)[C@@H](C)O  ΔG (WDR5 (Homo sapiens, UniProt P61964); binding, competitor of LANA peptide, ITC; pH 7.0, 20 °C, WIN motif peptide): -6.26 kcal/mol
O=C(c1ccc(Cl)cc1)N1CCN2C(=O)N(OC(=O)N3CCOc4ccccc43)C(=O)C2C1 (stereo not drawn)  peptide ratio (Cholinesterase (BCHE, Homo sapiens, UniProt P06276); MS-based ABPP; SW-620 conditioned medium; 10 µM, 1 h, 37 °C; reference: compound over DMSO, lower = more inhibition): 1.26 and 1.27 and 1.23 and 1.07
Nc1nc2c(ncn2[C@@H]2O[C@@H]3COP(=O)(O)O[C@H]4[C@@H](O)[C@H](n5cnc6c(=O)[nH]c(N)nc65)O[C@@H]4COP(=O)(O)O[C@H]3[C@H]2O)c(=O)[nH]1  binding enthalpy (ΔH) (Cell cycle histidine kinase CckA, R374A; cytoplasmic region (Caulobacter vibrioides, UniProt Q9X688, R374A); isothermal titration calorimetry; Caulobacter crescentus; concentration not given, 12 °C, added: ADP 5 mM): 1 kcal/mol
C[N+]1(C)CCN(c2ccccc2)CC1  response relative to ACh (Neuronal acetylcholine receptor; alpha4/beta2 (Homo sapiens, UniProt P17787+P43681); peak current, agonist, two-electrode voltage clamp; Xenopus oocytes; 30 µM, human receptor; reference: ACh 30 µM): 70%
Oc1ccc(-c2ccc(Cl)cc2)c(Cl)c1  maximum activity (Androgen receptor (AR, Homo sapiens, UniProt P10275); reporter gene, antagonist; 5 µM, added: DHT 2 nM; reference: DHT 2 nM): 9%
Cc1ccccc1NC(=O)Nc1ccc(CC(=O)N[C@@H](CCCCNC(=O)/C=C/c2cccnc2)C(=O)N[C@@H](CCCC(=O)O)C(=O)NC2(C(=O)NCCOCCOCCOCCOCC(=O)N[C@@H](CCCCNC(=S)Nc3ccc(CCCN(CCN4CCN(CP(=O)(O)O)CCN(CP(=O)(O)O)CC4)CC(=O)O)cc3)C(N)=O)CCCCC2)cc1 [gallium-68 labelled]  tumour-to-blood ratio (female C57BL/6 tumour-bearing mouse; intravenous, 4 h; reference: tumour over blood): 18.4 ± 4.7
CCCCC/C=C\C/C=C\C/C=C\C/C=C\CCCC(=O)NCCO  Hill coefficient (Trpv1 (Mus musculus, UniProt Q704Y3, T551S); ion current, agonist, whole-cell patch clamp; T551S): 3.12 ± 0.17
Cc1onc(-c2c(Cl)cccc2Cl)c1C(=O)N[C@@H]1C(=O)N2[C@@H]1SC(C)(C)[C@@H]2C(=O)O  kinact/KI (Penicillin-binding protein 1A (pbpA, Streptococcus pneumoniae, UniProt Q8DR59); inhibitor): 12000 ± 990 M⁻¹ s⁻¹
Oc1c(Br)cc(Br)cc1Oc1ccc(Br)cc1Br  apparent Vmax (SULT1B1 (Homo sapiens, UniProt O43704); sulfonation, substrate): 11 nmol/min/mg protein
CC[C@@H](C)[C@@H](NC(=O)[C@@H](Cc1ccc(O)cc1)NC(=O)[C@H]1CCCN1C(=O)[C@@H](CCCNC(=N)N)NC(=O)[C@H](N)Cc1c[nH]cn1)C(=O)N[C@H](C)C(=O)N[C@H](Cc1c[nH]cn1)C(=O)N[C@H](CCCNC(=N)N)C(=O)N[C@H](CCCCNC(=O)c1cccc(S(=O)(=O)F)c1)C(=O)N[C@H](Cc1ccc(O)cc1)C(=O)N[C@H](CO)C(=O)N[C@H](Cc1ccccc1)C(N)=O  surface TFRC expression (Transferrin receptor protein 1 (Tfrc, Mus musculus, UniProt Q62351); flow cytometry; RAW264.7; 24 h, pH 6, replicate 3, unit not given; reference: 0 h): 0.926

Some of these lines once more:
NCCc1c[nH]c2ccc(O)cc12  Km (AANAT1 cattle; substrate, DTNB colorimetric; added: acetyl-CoA): 120 ± 100 µM
O=C(Nc1cccnn1)N1CCC(=Cc2cccc(Oc3ccc(C(F)(F)F)cn3)c2)CC1  probe labelling (Baiap2; competitive ABPP with azido-FP probe, item: BAIAP2; rat brain membrane fraction; 0.01 µM, unit not given; reference: DMSO): -2
CC(C)(CO)Cc1cc(C(C)(C)C)c(O)c(C(C)(C)C)c1  IC50 (Plasmodium falciparum; HB3): 6.31 µM
CCOP(=S)(OCC)O/N=C(\C#N)c1ccccc1  efficacy (Cholinesterase (BCHE, Homo sapiens, UniProt P06276); concentration not given, Triton): -98.3 ± 4.77%
COc1cc(/C=C/C(=O)NC2CCN(Cc3ccccc3)CC2)ccc1OC(=O)N(C)C  selectivity ratio (Cholinesterase (BCHE, Equus caballus, UniProt P81908); Ellman; equine serum BuChE; reference: AChE IC50 over BuChE IC50): 0.5
